Experimental data pooled from the literature.
Compare with care: the assays were run in different laboratories. “And” joins repeats or separate records; there may be more than shown. ± marks the error that the study gave. Converted amounts (≈) assume the structure as drawn.
DRD2: D(2) dopamine receptor (DRD2, Homo sapiens, UniProt P14416)
UniProt P51575, sequence (whole entry, unmodified, looked up): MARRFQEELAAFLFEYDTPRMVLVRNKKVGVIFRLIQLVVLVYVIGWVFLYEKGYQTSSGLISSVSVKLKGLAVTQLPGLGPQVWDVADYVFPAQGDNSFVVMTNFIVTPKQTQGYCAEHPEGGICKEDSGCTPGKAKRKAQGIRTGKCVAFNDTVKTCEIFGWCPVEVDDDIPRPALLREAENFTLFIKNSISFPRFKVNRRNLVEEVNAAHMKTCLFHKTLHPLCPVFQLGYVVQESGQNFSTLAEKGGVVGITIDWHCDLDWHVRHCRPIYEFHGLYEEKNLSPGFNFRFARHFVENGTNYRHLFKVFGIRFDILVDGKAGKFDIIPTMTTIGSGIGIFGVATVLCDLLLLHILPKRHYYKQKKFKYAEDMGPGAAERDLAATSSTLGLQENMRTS
UniProt P14416, sequence (whole entry, looked up): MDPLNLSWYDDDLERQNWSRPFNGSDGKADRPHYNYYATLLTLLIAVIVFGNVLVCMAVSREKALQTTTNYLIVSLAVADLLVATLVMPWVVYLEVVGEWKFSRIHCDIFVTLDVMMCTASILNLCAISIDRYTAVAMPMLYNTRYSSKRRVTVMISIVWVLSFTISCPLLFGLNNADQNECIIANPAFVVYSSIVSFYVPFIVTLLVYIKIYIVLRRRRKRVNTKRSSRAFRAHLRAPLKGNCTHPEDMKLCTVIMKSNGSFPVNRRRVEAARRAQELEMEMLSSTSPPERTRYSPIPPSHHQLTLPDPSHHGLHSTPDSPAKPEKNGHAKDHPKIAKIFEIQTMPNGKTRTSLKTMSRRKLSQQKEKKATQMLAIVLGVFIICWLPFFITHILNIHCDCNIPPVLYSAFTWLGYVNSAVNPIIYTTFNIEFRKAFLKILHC

SMILES	tested on	test	test system	conditions	how to read	measurement	result
Cc1[nH]c(C)c(S(=O)(=O)Nc2cc(Cl)cc(Cl)c2Cl)c1C(=O)N1CCC(F)(F)C1	DRD2	–	–	–	–	IC50	> 100000 nM
COC(=O)[C@H](Cc1c[nH]c2ccccc12)NCc1cc2ccccc2nc1SC	Pseudomonas aeruginosa	–	–	8 µg/mL, added: pentamidine 50 µM	baseline: control	growth	93.7%
CCn1c(=O)c(-c2cc[nH]n2)cc2c(C)nc(N)nc21	enterovirus A71	–	suckling mouse, EV71-infected, liver	0.25 mg/kg	direction not given	hepatocyte oedema score	1
Nc1ncnc2c1ncn2[C@@H]1O[C@H](COP(=O)(O)CP(=O)(O)OP(=O)(O)O)[C@@H](O)[C@H]1O	P2X purinoceptor 1 (P2RX1, Homo sapiens, UniProt P51575, R292A)	calcium influx	–	100 nM	baseline: ionomycin response	calcium influx	0% and 0.0613% and 0.208% and 0.271%
Cc1cc(O)cc(C)c1C[C@H](NC(=O)[C@@H]1CCCN1C(=O)[C@H](CCCNC(=N)N)NC(=O)[C@H](CCCNC(=N)N)N(C)C(=O)[C@@H](CCC(N)=O)NC(=O)[C@@H](CCC(N)=O)NC(=O)[C@@H](CCC(N)=O)NC(=O)[C@H](Cc1cn(CCNC(=O)[C@H](CC(C)C)NC(=O)[C@H](CC(C)C)NC(=O)C2OC2C(=O)O)nn1)NC(=O)CN1CCN(CC(=O)O)CCN(CC(=O)O)CCN(CC(=O)O)CC1)C(=O)N[C@H](C(=O)N[C@@H](CC(C)C)C(=O)O)C(C)(C)C (mixture of isomers)	–	–	human	–	–	fraction unbound	0.927
Cn1cc(C(=O)C(=O)NCCc2c[nH]c3ccccc23)c2ccccc21	Pseudomonas putida, Escherichia coli	bactericidal activity	–	3 x MIC, 2 h	–	killing	80 to 95%
O=C(O)c1cn(C2CC2)c2cc(N3CCNCC3)c(F)cc2c1=O	Bacillus subtilis	bacterial cytological profiling	ATCC 6633	concentration not given	–	cell length	6.15 µm and 5.87 µm and 6.17 µm
Cn1c(Cn2ccc(C(F)(F)F)c(Oc3cc(Cl)cc(C#N)c3)c2=O)n[nH]c1=O	HIV-1 NL4-3	viral replication, luciferase reporter	TZM-bl	48 h	–	EC50	3 ± 0.2 nM
CC(=Nc1ccc(N=Cc2cnccn2)cc1)N(C)C	Necator americanus	–	hamster (Mesocricetus auratus), infected	oral, 50 mg/kg single dose, 2 h	–	anthelmintic rate	45 ± 9.5%
Nc1nc(-c2ccccc2)nc2[nH]nc(Nc3ccc(C(F)(F)F)cc3)c12	coxsackievirus B3	–	31-1-93, NMRI mice, CVB3 chronic myocarditis	oral, 100 mg/kg twice daily, day 4, dosed days 1 to 7, score scale 0 to 7	direction not given	clinical score	0.67
N=C(N)c1ccc(OCc2ccc(-c3ccccc3)cc2COc2ccc(C(=N)N)cc2)cc1	Escherichia coli	checkerboard	mcr-3 polymyxin-resistant	unit not given, added: rifampicin	lower = stronger synergy	FICI	≤ 0.031
Cc1cc(Nc2ccc(S(F)(F)(F)(F)F)cc2)n2nc(C(C)(F)F)nc2n1	Plasmodium falciparum	microscopy	human malaria patients	250 mg, median	–	parasite clearance half-life	4.7 h
CO[C@H]1/C=C/O[C@@]2(C)Oc3c(C)c(O)c4c(c3C2=O)C2=NC3(CCN(CC(C)C)CC3)NC2=C(NC(=O)/C(C)=C\C=C\[C@H](C)[C@H](O)[C@@H](C)[C@@H](O)[C@@H](C)[C@H](OC(C)=O)[C@@H]1C)C4=O	Mycobacteroides abscessus	bacterial growth	subsp. abscessus M9 clinical isolate	–	–	IC50	1400 nM
CC[C@@H](C)[C@@H](N)C(=O)OC[C@H]1O[C@@](C#N)(c2ccc3c(N)ncnn23)[C@H](O)[C@@H]1O	human respiratory syncytial virus	viral replication, viral protein ELISA	HEp-2, A2	5 days	–	EC50	1690 ± 216 nM
NC(=O)c1ncn([C@@H]2O[C@H](CO)[C@@H](O)[C@H]2O)n1	Punta Toro virus	–	Vero	–	–	EC50	50000 nM
Cn1cc(-c2ccc(-c3cncc(Cl)c3N3CCC4(CCNC4=O)CC3)cc2)cn1	COLO 205	gene expression, microarray, refers to: HOXA4 mRNA	–	concentration not given, 2 h	baseline: untreated cells	log2 fold change	2.26
CN[C@H](CC(C)C)C(=O)N[C@H]1C(=O)N[C@@H](CC(N)=O)C(=O)N[C@H]2C(=O)N[C@H]3C(=O)N[C@H](C(=O)N[C@H](C(=O)O)c4cc(O)cc(O)c4-c4cc3ccc4O)[C@H](O)c3ccc(c(Cl)c3)Oc3cc2cc(c3O[C@@H]2O[C@H](CO)[C@@H](O)[C@H](O)[C@H]2O[C@H]2C[C@](C)(N)[C@H](O)[C@H](C)O2)Oc2ccc(cc2Cl)[C@H]1O	Streptococcus pneumoniae	broth microdilution	penicillin-resistant isolates	–	–	MIC50	0.5 µg/mL (≈ 0.345 µM)
COc1ccc2nc([S+]([O-])Cc3ncc(CO)c(OC)c3C)[nH]c2c1 (stereo not shown)	CYP2C19 (Homo sapiens, UniProt P33261)	substrate	human, plasma	oral, 20 mg, day 14, cocktail with binimetinib and encorafenib	–	Cmax	64.4 ng/mL
O=C1O[C@H]2[C@@H]3OC(=O)c4cc(O)c(O)c(O)c4-c4c(O)c(O)c5oc(=O)c6c(c(O)c(O)c7oc(=O)c4c5c76)-c4c(cc(O)c(O)c4O)C(=O)OC[C@H]3OC(O)[C@@H]2OC(=O)c2cc(O)c(O)c(O)c2-c2c1cc(O)c(O)c2O (mixture of isomers)	Streptococcus sobrinus	–	–	500 µg/disc	–	inhibition zone diameter	19 ± 1.1 mm
N#C[C@@]1(c2ccc3c(N)ncnn23)O[C@H](COC(=O)C2CCCCC2)[C@@H](O)[C@H]1O	human respiratory syncytial virus	RT-PCR	A2, BALB/c mouse	oral, twice daily, dose not given, day 4 post-infection	–	lung viral RNA reduction	1.18 log10
CO[C@H]1/C=C/O[C@@]2(C)Oc3c(C)c(O)c4c(O)c(c(/C=N/N5CCN(C)CC5)c(O)c4c3C2=O)NC(=O)/C(C)=C\C=C\[C@H](C)[C@H](O)[C@@H](C)[C@@H](O)[C@@H](C)[C@H](OC(C)=O)[C@@H]1C	Bacillus subtilis	bacterial cytological profiling	ATCC 6633	concentration not given	–	DNA area	1.15 µm² and 1.01 µm² and 1.17 µm²
Cc1cc(OC(C)C)ccc1C(=O)C(C)(C)NC(=O)c1sccc1C	Botrytis cinerea	mycelial growth	B05.10	0.001 µg/mL	–	inhibition	21.2 ± 21.1%
COC(=O)[C@@H](NCc1cc2ccccc2nc1OCc1ccccc1)C(C)C	Pseudomonas aeruginosa	–	–	16 µg/mL, added: pentamidine 100 µM	baseline: control	growth	96.1%
C[C@@H]1O[C@@H](OC[C@H]2O[C@@H](Oc3c(-c4ccc(O)c(O)c4)oc4cc(O)cc(O)c4c3=O)[C@H](O)[C@@H](O)[C@@H]2O)[C@H](O)[C@H](O)[C@H]1O	Streptococcus sobrinus	–	–	MIC, first 15 min, added: glucose 1%	–	initial rate of glycolytic pH drop	0.031 pH units/min
O=c1[nH]c2ncsc2c(=O)n1O	Amaranthus retroflexus	–	–	1500 g/ha, 21 days, post-emergence, glasshouse pot	–	growth inhibition	100%

SMILES	tested on	test	test system	conditions	how to read	measurement	result
CC1(C)S[C@@H]2[C@H](NC(=O)[C@H](N)c3ccccc3)C(=O)N2[C@H]1C(=O)O	Pseudomonas aeruginosa	–	clinical isolate RKI-No_584/15	–	–	MIC	> 16 µg/mL
CC(C)n1ncc2c(C(=O)NCC3(C)CNC3)cc(C3CC3)nc21	Enterovirus D68	viral replication	RD, US/MO/14-18947	0.3 µM	baseline: untreated	plaque area	0%
CCc1nn(C)c2nc(-c3ccc(C(=O)O)cc3)nc(NCc3ccc(F)cc3)c12	Cryptosporidium parvum	–	HCT-8	EC90, 48 h	baseline: DMSO control	parasite number	28.2% and 31.6% and 32.2% and 32.5%
CC1(C)S[C@@H]2[C@H](NC(=O)[C@H](N)c3ccccc3)C(=O)N2[C@H]1C(=O)O	Bacillus subtilis	bacterial cytological profiling	ATCC 6633	concentration not given	–	cell width	0.95 µm and 0.85 µm and 0.89 µm
CC(C)[C@H](NC(=O)[C@H](Cc1ccc(O)cc1)NC(=O)[C@H](Cc1ccc(O)cc1)NC(=O)[C@@H]1CCCN1C(=O)[C@H](CCC(=O)O)NC(=O)[C@H](CCC(=O)O)NC(=O)[C@H](Cc1c[nH]c2ccccc12)NC(=O)[C@@H]1CCCN1C(=O)[C@@H](NC(=O)[C@H](CCC(N)=O)NC(=O)c1ccc2c(c1)C(=O)OC21c2ccc(O)cc2Oc2cc(O)ccc21)C(C)C)C(=O)N[C@H](C(=O)N[C@@H](CCCCN)C(=O)N[C@@H](CCCCN)C(=O)N[C@@H](CO)C(=O)N[C@@H](CO)C(=O)NCC(=O)NCC(N)=O)C(C)C	–	refers to: total compound	human, plasma	intravenous infusion, 500 mg, 15 min	–	plasma concentration	32200 ng/mL
C=CC(=O)ON=C1C=CC(=C(C#N)c2ccccc2)C=C1	Pichia norvegensis	broth dilution	ATCC 96139	48 h, 37 °C	–	MFC	32 µg/mL (≈ 116 µM)
O=C(O)CC[C@H](NC(=O)N[C@@H](CCCCNC(=O)[C@H](Cc1ccc2ccccc2c1)NC(=O)CCCCCNC(=O)CN1CCN(CC(=O)O)CCN(CC(=O)O)CCN(CC(=O)O)CC1)C(=O)O)C(=O)O [gallium-68 labelled]	–	gamma counting	mouse, PC-3 xenograft, heart	intravenous, 3.7 MBq, 2 h	–	tissue uptake	4.57 ± 0.69 %ID/g
CN(C)[C@@H]1C(O)=C(C(N)=O)C(=O)[C@@]2(O)C(O)=C3C(=O)c4c(O)cccc4[C@@](C)(O)[C@H]3C[C@@H]12	Bacillus subtilis	bacterial cytological profiling	ATCC 6633	concentration not given	–	cell area	1.88 µm² and 1.79 µm² and 1.7 µm²
CCN(CC)C(=O)c1c(C)[nH]c(C)c1S(=O)(=O)Nc1ccc(C(F)(F)F)c(Cl)c1	DRD2	–	–	–	–	IC50	> 100000 nM
CNC(C)C1CCC(N)C(OC2C(N)CC(N)C(OC3OCC(C)(O)C(NC)C3O)C2O)O1 (stereo not shown)	Stenotrophomonas maltophilia	broth microdilution	clinical isolate RKI-No 136/09	–	–	MIC	2 µg/mL (≈ 4.19 µM)
O=C1OC[C@H]2OC(O)[C@H](O)[C@@H](O)[C@@H]2OC(=O)c2cc(O)c(O)c(O)c2-c2c(O)c(O)c3oc(=O)c4c(c(O)c(O)c5oc(=O)c2c3c54)-c2c1cc(O)c(O)c2O (mixture of isomers)	Streptococcus sobrinus	–	–	500 µg/disc	–	inhibition zone diameter	15.4 ± 1.4 mm
N=C(N)c1ccc(OCc2ccc(Br)cc2COc2ccc(C(=N)N)cc2)cc1	Escherichia coli	checkerboard	W3110	unit not given, added: rifampicin	lower = stronger synergy	FICI	≤ 0.047
CC(C)C[C@H](NC(=O)C[C@H](O)[C@H](CC(C)C)NC(=O)[C@H](Cc1c[nH]cn1)NC(=O)CNC(=O)[C@@H](NC(=O)[C@H](C)NC(=O)[C@H](Cc1c[nH]c2ccccc12)NC(=O)[C@H](CCC(N)=O)NC(=O)[C@@H](Cc1ccccc1)NC(=O)COCCOCCNC(=O)CCC(C(=O)O)N1CCN(CC(=O)O)CCN(CC(=O)O)CCN(CC(=O)O)CC1)C(C)C)C(N)=O (stereo partly shown) [lutetium-177 labelled]	–	–	BALB/c nu/nu mice, liver	intravenous, 750 pmol, 1 h, added: PA 300 µg	–	tissue uptake	0.4 ± 0.1 %ID/g
CC(C)C(=O)OC[C@H]1O[C@@](C#N)(c2ccc3c(N)ncnn23)[C@H](O)[C@@H]1O	human respiratory syncytial virus	viral replication, viral protein ELISA	HEp-2, A2	5 days	–	EC50	550 ± 48 nM
O=c1c(-c2nc3ccccc3s2)cc2c(n1NS(=O)(=O)c1ccc(Cl)cc1)CCCC2	Human mastadenovirus B	viral replication, plaque reduction	HEp-2 cells, type 7	non-toxic concentration	–	reduction	0%
[N-]=[N+]=N[C@]1(CO)O[C@@H](n2ccc(N)nc2=O)[C@@H](F)[C@@H]1O	human respiratory syncytial virus	–	A2 RSV-GFP	concentration not given	–	viral replication	no inhibition
[H]/N=C(\N/C(=N/[H])NCCCCCCNC(=N)NC(=N)Nc1ccc(Cl)cc1)Nc1ccc(Cl)cc1	Streptococcus sobrinus	glycolytic acid production	–	MIC, first 15 min, 0.25 h, added: glucose 1%	–	initial rate of pH drop	0.018 pH unit/min
Cc1cc(O)cc(C)c1C[C@H](NC(=O)[C@@H]1CCCN1C(=O)[C@H](CCCNC(=N)N)NC(=O)[C@H](CCCNC(=N)N)N(C)C(=O)CNC(=O)[C@@H](CO)NC(=O)CNC(=O)[C@H](Cc1cn(CCNC(=O)[C@H](CC(C)C)NC(=O)[C@H](CC(C)C)NC(=O)C2OC2C(=O)NO)nn1)NC(=O)CN1CCN(CC(=O)O)CCN(CC(=O)O)CCN(CC(=O)O)CC1)C(=O)N[C@H](C(=O)N[C@@H](CC(C)C)C(=O)O)C(C)(C)C (mixture of isomers) [lutetium-177 labelled]	–	–	human	–	–	fraction unbound	0.84
O=c1c(O)c(-c2ccc(O)cc2)oc2cc(O[C@@H]3O[C@H](CO)[C@@H](O)[C@H](O)[C@H]3O)cc(O)c12	Streptococcus sobrinus	–	ATCC 33478	–	–	MBC	400 µg/mL (≈ 892 µM)
Cc1nc2[nH]c(=O)n(O)c(=O)c2s1	Amaranthus retroflexus	–	–	1500 g/ha, 21 days, post-emergence, glasshouse pot	–	growth inhibition	64.6%
N[C@@H](Cc1ccc(O)cc1)C(=O)O	Bacillus subtilis	chemotaxis pathway, FRET	168	–	–	EC50	29700 nM
COC[C@H]1O[C@@H]2O[C@@H]3[C@@H](OC)[C@@H](OC)[C@@H](O[C@@H]4[C@@H](OC)[C@@H](OC)[C@@H](O[C@@H]5[C@@H](OC)[C@@H](OC)[C@@H](O[C@@H]6[C@@H](OC)[C@@H](OC)[C@@H](O[C@@H]7[C@@H](OC)[C@@H](OC)[C@@H](O[C@@H]1[C@@H](OC)[C@H]2OC)O[C@@H]7COC)O[C@@H]6COC)O[C@@H]5COC)O[C@@H]4COC)O[C@@H]3COC	Escherichia coli	LuxR reporter, antagonist	DH5α sensor strain	100 µM, added: OHHL 200 nM	–	inhibition	-9 ± 12%
Oc1cc(O)c2c(c1)O[C@H](c1cc(O)c(O)c(O)c1)[C@@H](O)C2	Streptococcus sobrinus	–	–	MIC, first 15 min, added: glucose 1%	–	initial rate of glycolytic pH drop	0.041 pH units/min
COc1cccc2c1C(=O)c1c(O)c3c(c(O)c1C2=O)C[C@@](O)(C(=O)CO)C[C@@H]3O[C@H]1C[C@H](N)[C@H](O)[C@H](C)O1	Bacillus subtilis	bacterial cytological profiling	ATCC 6633	–	–	cell area	3.77 µm² and 3.11 µm² and 3.17 µm²
